Results from different studies.
Lines come from different studies, so protocols differ.

Cc1ncc([N+](=O)[O-])n1CCO
EC50 (Escherichia coli expressing YfkO_Bs nitroreductase; growth inhibition, substrate, OD600; 4 h): 172000 nM

O=c1[nH]nnc2c1ncn2[C@@H]1O[C@H](CO)[C@@H](O)[C@H]1O
EC50 (HEK293T ATF4-FLuc reporter; ATF4 reporter gene, activator, luciferase reporter): 1380 nM

Cc1onc(-c2ccccc2)c1C(=O)N1CCN(c2ccc([N+](=O)[O-])cc2Cl)CC1
inhibition (THP-1; pyroptotic LDH release; 2 µM, 40 min, with: LPS then nigericin): -13.9%

CC[C@H](C)[C@H](NC(=O)OCc1ccccc1)C(=O)N[C@@H](CCC(=O)OC(C)(C)C)C(=O)N[C@@H](C)C(=O)N[C@H](C=O)CC(C)C
EC50 (HEK293T ATF4-FLuc reporter; ATF4 reporter gene, activator, luciferase reporter): 43.1 nM

O=C(NCCN1CCCC1)c1cc(-c2ccc(CN3CCOCC3)cc2)nc2ccc(F)cc12
EC50 (MRC-5; cytotoxicity, resazurin): 23000 nM

CO[C@@H]1C[C@@H](C[C@H]2CC[C@H](C)[C@H]([C@@H](C)C(=O)O)O2)O[C@]2(O[C@](C)([C@H]3CC[C@@](C)([C@@H]4O[C@@H]([C@H]5O[C@@](O)(CO)[C@H](C)C[C@@H]5C)C[C@@H]4C)O3)C[C@H]2C)[C@@H]1C
EC50 (human iPSC-derived cardiac fibroblasts, reporter lines; antifibrotic reporter effect; doses, lower, re-examined at): 5 nM

O=C(Cc1ccccc1)Nc1nnc(CCSCCc2nnc(NC(=O)Cc3ccccc3)s2)s1
EC50 (HCC38; cell proliferation, inhibitor, cell counting; 144 h): 4700 nM

COc1cnc2cccc(N3CCc4c(cc(Cn5ccnc5C)cc4-c4cn(C)nc4C(F)(F)F)C3=O)c2c1
EC50 (Calu-1; cell growth, inhibitor; 120 h): > 30000 nM

O=C(Nc1ccc(-c2ccnc(Nc3ccc(N4CCOCC4)cc3)n2)cc1)C1CCCN1 (stereo not drawn)
EC50 (HEK293T ATF4-FLuc reporter; ATF4 reporter gene, activator, luciferase reporter): 6530 nM

CC(C)(Oc1ccc(Cl)cc1)C(=O)OCCOC(=O)c1cccnc1
inhibition (THP-1; pyroptotic LDH release; 2 µM, 40 min, with: LPS then nigericin): 0.591%

C[C@H]1[C@H](OC(=O)CCC(=O)O)O[C@@H]2O[C@@]3(C)CC[C@H]4[C@H](C)CC[C@@H]1[C@@]24OO3
EC50 (human iPSC-derived cardiac fibroblasts, reporter lines; profibrotic reporter inhibition; 72 h, 7 doses up to 20 µM, with: 5 ng/mL TGF-β1): 2100 nM

S=C(NCc1ccc2c(c1)OCO2)N1CCN(c2ncnc3c2oc2ccccc23)CC1
EC50 (HEK293T ATF4-FLuc reporter; ATF4 reporter gene, activator, luciferase reporter): 1620 nM

CCn1cc(-c2cc(Cn3ccnc3)cc3c2CCN([C@H](c2cc(OC)ccn2)C2CC2)C3=O)c(C(F)(F)F)n1
EC50 (Calu-1; cell growth, inhibitor; 120 h): 86.5 nM

NC(=O)c1ccc(-c2nc(-c3ccc4c(c3)OCO4)c(-c3ccccn3)[nH]2)cc1
EC50 (human iPSC-derived cardiac fibroblasts, reporter lines; profibrotic reporter inhibition; 72 h, 7 doses up to 20 µM, with: 5 ng/mL TGF-β1): 1500 nM

CC(=O)c1ccc(-c2cccc(NC(=O)CCc3cccc4c3B(O)OC4)c2)cc1
EC50 (HeLa wild type; transcriptional read-through, RT-qPCR, refers to: SCARF1 read-through mRNA downstream of RILP; reference: GAPDH): 76 nM

Some of these lines once more:
O=C(NCCN1CCCC1)c1cc(-c2ccc(CN3CCOCC3)cc2)nc2ccc(F)cc12
EC50 (MRC-5; cytotoxicity, resazurin): 23000 nM

CO[C@@H]1C[C@@H](C[C@H]2CC[C@H](C)[C@H]([C@@H](C)C(=O)O)O2)O[C@]2(O[C@](C)([C@H]3CC[C@@](C)([C@@H]4O[C@@H]([C@H]5O[C@@](O)(CO)[C@H](C)C[C@@H]5C)C[C@@H]4C)O3)C[C@H]2C)[C@@H]1C
EC50 (human iPSC-derived cardiac fibroblasts, reporter lines; antifibrotic reporter effect; doses, lower, re-examined at): 5 nM
